Experimental data pooled from the literature.
Every numbered part comes from another study and shows a few of its results, in no order.

Sample 1 — method: aptamer microarray, sandwich; molecule type: DNA with 2'F-ANA; matrix: in vitro; tested at: 200 nM; added: Cy3 exosite-II aptamer, 400 nM; reading: higher = stronger binding; strand: GGTTGGTGTGGTTGG
Target: Prothrombin, mature alpha-thrombin (F2, Homo sapiens, UniProt P00734)
Notes: whole 15-mer aptamer, many near background
Modification | mean fluorescence intensity [a.u.]
2'F-ANA at 1 4 6 11 12 | 204
2'F-ANA at 3 6 9 10 12 14 | 404
2'F-ANA at 1 2 5 6 7 8 10 11 12 14 15 | 56
2'F-ANA at 2 3 4 7 9 12 14 | 344
2'F-ANA at 2 4 6 9 11 13 14 | 89.9
2'F-ANA at 1 3 4 9 12 13 15 | 253
2'F-ANA at 1 5 6 7 9 10 11 13 15 | 47.6

Sample 2 — method: protein binding microarray; molecule type: double-stranded DNA, one strand shown; matrix: in vitro; tested at: not given; reference: not given; reading: higher = stronger binding
Target: Histone acetyltransferase KAT6A, winged helix 1, GST fusion (KAT6A, Homo sapiens, UniProt Q92794, residues 1-85)
Notes: 8-mer, flanks averaged, mean of 2 arrays, mostly near background
Target sequence (chain): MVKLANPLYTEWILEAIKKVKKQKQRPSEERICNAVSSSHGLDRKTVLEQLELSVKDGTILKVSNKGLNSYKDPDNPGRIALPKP
Strand | E-score
CAGATAAA | -0.105
AATGCTAA | -0.145
CTGGTACC | 0.0736
AACTTGGG | -0.0948
CCGTGGTA | 0.0605
CCCAAAGC | -0.0391
AGTCCAAC | -0.218
ATTTGGTA | -0.19
AACGAGGG | -0.201

Sample 3 — method: Spec-seq; molecule type: double-stranded DNA, one strand shown; matrix: in vitro; tested at: not given; notes: whole probe, mean of replicates; reference: not given; reading: lower = stronger binding; all sequences stand within: GAGTCGTCTCGTCAGCAC … CCGTAGAGCACTCAGGTC
Target: POU domain, class 5, transcription factor 1, POU domain (Pou5f1, Mus musculus, UniProt P20263, residues 131-289)
Sequence of UniProt P20263 (131-289, looked up): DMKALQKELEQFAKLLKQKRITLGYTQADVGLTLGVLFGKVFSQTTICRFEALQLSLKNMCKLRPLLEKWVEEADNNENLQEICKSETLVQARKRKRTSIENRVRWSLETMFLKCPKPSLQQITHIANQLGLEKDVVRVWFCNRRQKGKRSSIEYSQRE
Strand | relative binding energy [ln ratio]
CGATTAAT | 0.45
ATGCACTG | 0.431
TGCGTAAT | 0.492
ATGCACCT | 0.188
CCGGTAAT | 0.693
ATCAACAT | -1.28
ATGTCGAT | 0.589

Single results of other studies
Substance | target | test | system | conditions | how to read | measurement | result
PhoQ, residues 284 288 289 292 302 303 AANNSF | PhoP, residues 12 14 15 18 19 LHHSG (Escherichia coli, UniProt P23836) | Sort-seq, item: YFP reporter | E. coli | PhoQ-PhoP variant library, added: 10 µM Mg2+ | reference: high Mg2+ state, higher = stronger signaling | fold induction | 11.9

Some of these lines once more (sample 2):
Strand | E-score
AACTTGGG | -0.0948
CTGGTACC | 0.0736
AGTCCAAC | -0.218
